Measurements gathered from unrelated publications.

C[C@@H]1OC(=O)NN=C1c1ccc(-c2ccc(F)cc2)c(C(F)(F)F)c1  patients with blood ALP increased (patients, phase I trial; oral, 5 mg once daily, worst grade 1): 0%
C=CCNc1c(O)cc2c(O)c1C[C@@H](C)C[C@H](OC)[C@H](O)[C@@H](C)/C=C(\C)[C@H](OC(N)=O)[C@@H](OC)/C=C\C=C(/C)C(=O)N2  patients with nausea TEAE (unresectable or metastatic STS, GIST, other; intravenous, 225 mg/m^2): 33%
C=CC(=O)N1CC[C@H](n2nc(C#Cc3cc(OC)cc(OC)c3)c3c(N)ncnc32)C1  patients with ADR (hyperphosphataemia patients; oral, once daily, grade ≥3, lanthanum carbonate users): 16.7%
CO[C@H]1C[C@@H]2CC[C@@H](C)[C@@](O)(O2)C(=O)C(=O)N2CCCC[C@H]2C(=O)O[C@H]([C@H](C)C[C@@H]2CC[C@@H](OC(=O)NCCOCCOCCOCCOCCOCCOCCOCCOCCC(=O)N3CCc4cc(Cn5nc(-c6ccc7oc(N)nc7c6)c6c(N)ncnc65)ccc4C3)[C@H](OC)C2)C[C@@H](O)[C@H](C)/C=C(\C)[C@@H](O)[C@@H](OC)C(=O)[C@H](C)C[C@H](C)/C=C/C=C/C=C/1C  patients with AE (refers to: treatment-related decreased appetite; patients with advanced solid tumours; intravenous, dose not given, grade ≥3, all doses): 1.8%
CN1CC[C@@H](c2c(O)cc(O)c3c(=O)cc(-c4ccc(C(F)(F)F)cc4Cl)oc23)[C@@H]1CO  patients with adverse event (refers to: febrile neutropenia; B-cell malignancies; oral, 150 mg, grade 3 to 4, intermittent dosing): 0%
Cc1cc(OCCOCCC(F)(F)P(=O)(O)O)ccc1CCc1cnc2c(N)nc3cc(CCC(=O)O)ccc3c2c1  patients with non-serious AE (refers to: asthenia; adults with advanced solid tumours; dose not given, by treatment group, all grades): 23.8%
CCNCCCNC/C=C\CNCCCNCC  patients with drug-related TEAEs (advanced refractory solid tumour patients; intravenous, dose not given, Vascular disorders): 19.6%
CC(=O)c1c(C)c2cnc(Nc3ccc(C4CCN(CCS(C)(=O)=O)CC4)cn3)nc2n(C2CCCC2)c1=O  patients with hypertriglyceridemia (HR+/HER2- advanced breast cancer patients; oral, dose not given, all grades,, sample A patients): 22.2%
Nc1nc2cc(-c3ccc4ncc(C(=O)N5CCOCC5)n4c3)ccc2o1  patients with adverse events (refers to: Cough, any cause, all grades; patients with advanced solid tumours; dose not given): 22%
O=C1Nc2cc3[nH]nc(-c4ccncc4)c3cc2CN1Cc1ccccc1  patients with ≥1 TEAE (CTCAE v4.03; advanced solid tumour patients; intravenous, 4.8 mg/kg, schedules 1/2): 100%
COc1cc2c(Oc3ccc4[nH]c(C)cc4c3F)ccnc2cc1OCC1(N)CC1  patients with grade 3 TBIL elevation (paediatric refractory sarcoma patients; dose not given): 2.9%

A few entries again:
CCNCCCNC/C=C\CNCCCNCC  patients with drug-related TEAEs (advanced refractory solid tumour patients; intravenous, dose not given, Vascular disorders): 19.6%
